Measurements of several laboratories.
pIC50: −log10 of the molar value.
Cell line: OVCAR-3

| SMILES | assay | setting | how to read | measurement | value |
| --- | --- | --- | --- | --- | --- |
| CCN(C(=O)c1cc(F)ccc1Oc1nncnc1N1CCC2(C1)CN([C@H](CCCN(C)CCOC)C(C)C)C2)C(C)C | cell growth or viability | 7 days | – | GI50 | > 10 µM |
| O=C(Nc1nnc2c1c(-c1ccc(Cl)cc1)nc1sc(=Cc3ccco3)c(=O)n12)c1ccccc1 (mixture of isomers) | SRB | 10 µM, NCI60 single-dose screen | relative to: untreated | cell growth | 43.9% |
| CN(C)CCN1CCN(c2ccc3nc(-c4ccc5nc(-c6ccc(C(F)(F)F)cc6)[nH]c5c4)[nH]c3c2)CC1 | SRB | 10 µM, 48 h | – | growth percent | 89.7% |
| Cc1ccc([N+](=O)[O-])cc1S(=O)(=O)N(C)/N=C/c1cnc2ccc(Br)cn12 | cell viability, MTS | – | – | pIC50 | 7.15 |
| COC1CC(=O)c2c(O)cccc2C12Oc1cccc3cccc(c13)O2 (centres unmarked) | cell growth or viability, resazurin | 72 h | – | pIC50 | < 4.60 |
| C1=[N+]2CCCC[N+]3=Cc4ccc5[n]4[Au-]23[n]2c1ccc2-c1nc2ccccc2nc1-5.F[P-](F)(F)(F)(F)F | – | NCI60 five-dose screen | – | pIC50 | 5.37 |
| CNS(=O)(=O)Nc1nccc(Cc2c(C)c3ccc(Oc4ncccc4F)cc3oc2=O)c1F | cell viability | 7 days | – | pIC50 | < 6.00 |
| O=C1C=CC2(Oc3cccc4cccc(c34)O2)c2ccccc21 | cell growth or viability, resazurin | 72 h | – | pIC50 | 5.48 |

Some of these lines once more:
| SMILES | assay | setting | how to read | measurement | value |
| --- | --- | --- | --- | --- | --- |
| O=C(Nc1nnc2c1c(-c1ccc(Cl)cc1)nc1sc(=Cc3ccco3)c(=O)n12)c1ccccc1 (mixture of isomers) | SRB | 10 µM, NCI60 single-dose screen | relative to: untreated | cell growth | 43.9% |
